# Results gathered from unrelated publications.
# Each numbered part is a random draw from the data of one study; scales do not carry over between parts.

# Block 1 — technique: universal PBM; molecule type: double-stranded DNA, one strand shown; matrix: in vitro; tested at: 600 nM; direction: higher = stronger binding
# Target: Sal-like protein 4, full length isoform A (SALL4, Homo sapiens, UniProt Q9UJQ4, residues 1-1053)
# Sequence of UniProt Q9UJQ4 (whole entry, looked up): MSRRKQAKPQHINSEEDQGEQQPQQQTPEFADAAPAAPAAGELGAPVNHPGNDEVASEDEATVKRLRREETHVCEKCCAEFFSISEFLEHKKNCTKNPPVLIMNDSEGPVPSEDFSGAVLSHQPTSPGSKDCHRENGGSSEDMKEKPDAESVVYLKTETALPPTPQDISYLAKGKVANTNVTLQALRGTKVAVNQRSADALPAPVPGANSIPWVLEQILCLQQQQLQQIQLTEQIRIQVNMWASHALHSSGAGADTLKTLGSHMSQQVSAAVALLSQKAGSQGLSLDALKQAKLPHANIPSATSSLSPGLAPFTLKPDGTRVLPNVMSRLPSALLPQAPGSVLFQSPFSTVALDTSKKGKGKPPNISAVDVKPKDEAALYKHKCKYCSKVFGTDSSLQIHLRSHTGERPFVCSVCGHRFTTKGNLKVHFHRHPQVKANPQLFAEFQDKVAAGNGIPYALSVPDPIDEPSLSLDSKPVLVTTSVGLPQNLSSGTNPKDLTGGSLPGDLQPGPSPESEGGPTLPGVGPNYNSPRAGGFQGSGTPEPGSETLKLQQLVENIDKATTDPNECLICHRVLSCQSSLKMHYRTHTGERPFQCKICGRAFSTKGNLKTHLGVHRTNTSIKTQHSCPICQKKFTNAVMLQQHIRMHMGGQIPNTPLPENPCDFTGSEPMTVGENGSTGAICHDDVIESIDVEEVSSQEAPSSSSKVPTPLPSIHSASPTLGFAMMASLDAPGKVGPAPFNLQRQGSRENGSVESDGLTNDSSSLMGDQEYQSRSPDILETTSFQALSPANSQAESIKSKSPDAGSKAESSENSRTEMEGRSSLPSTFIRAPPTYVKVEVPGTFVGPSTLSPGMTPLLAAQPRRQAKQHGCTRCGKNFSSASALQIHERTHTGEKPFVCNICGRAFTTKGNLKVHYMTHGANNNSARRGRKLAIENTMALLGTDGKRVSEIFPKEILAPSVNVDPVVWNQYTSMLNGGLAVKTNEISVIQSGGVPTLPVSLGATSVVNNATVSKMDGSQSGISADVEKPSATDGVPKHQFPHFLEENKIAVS
# Notes: 8-mer, flanks averaged, mean of replicates
Strand,E-score
ATTGCTTG,0.197
CGAAACTA,0.104
CCTTTATA,0.231
CAGTCTTA,0.0741
CAAGCAAA,0.162
CCCTACTC,-0.0636
CCCCGGTA,-0.346
CGGCTCCA,-0.277

# Block 2 — technique: protein-binding microarray; molecule type: double-stranded DNA, one strand shown; matrix: in vitro; tested at: 0.8 µM; notes: whole 60-bp probe, no competitor; direction: higher = stronger binding
# Target: Centromere-binding protein 1, full length, N-terminal tag (CBF1, Saccharomyces cerevisiae, UniProt P17106, residues 1-351)
# Sequence of UniProt P17106 (whole entry, looked up): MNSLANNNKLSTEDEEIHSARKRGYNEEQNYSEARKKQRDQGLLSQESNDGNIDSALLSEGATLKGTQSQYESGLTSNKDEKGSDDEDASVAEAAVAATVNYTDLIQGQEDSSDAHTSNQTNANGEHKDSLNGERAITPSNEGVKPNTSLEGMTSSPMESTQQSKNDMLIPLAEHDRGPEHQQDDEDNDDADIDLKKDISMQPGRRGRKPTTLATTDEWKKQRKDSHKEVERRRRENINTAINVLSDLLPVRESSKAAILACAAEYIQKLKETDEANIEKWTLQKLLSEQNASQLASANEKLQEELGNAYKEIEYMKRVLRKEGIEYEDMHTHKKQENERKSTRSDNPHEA
Strand,fluorescence intensity [a.u.]
GAATCCGGCCATAGTAACACCACGCAAGGTAACTAGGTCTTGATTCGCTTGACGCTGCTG,522
TGTACGAAGCTATAATGCGTGCTTATAGTAGTTAGGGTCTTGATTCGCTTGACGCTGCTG,538
CTAAAGAAGCCGCATCACCTTAAACACTAACCATTCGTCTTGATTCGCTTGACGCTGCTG,515
CTATGAACAGAAACAAATCACATGTTTCCTTGGTTCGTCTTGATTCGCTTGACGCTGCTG,3150
CTAAAAAAAAAGATCATCATGATTACGTAGAAATTCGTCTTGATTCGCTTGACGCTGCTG,509
TGTACGAAGCTATATCACGGAGATATAGTAGTTAGGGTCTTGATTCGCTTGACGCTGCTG,522
GAACTAAAGAAAAGTGAGGTCACCTACCATCAATAGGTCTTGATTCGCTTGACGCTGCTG,536
CTATGACTGGACGGTGATGCAGTAGCTGTTAACTTCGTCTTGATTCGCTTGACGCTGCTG,492

# Block 3 — effect on: enzyme activity; action: inhibitor; tested at: 20 µM; notes: primary screen
# Target: Replicase polyprotein 1ab, main protease (rep, Severe acute respiratory syndrome coronavirus 2, UniProt P0DTD1)
SMILES,inhibition [%]
CCC[C@H](NC(=O)/C(C#N)=C/c1cccc(Br)n1)c1ccccc1,55.6
Nc1nc(=S)c2ncn([C@@H]3O[C@H](CO)[C@@H](O)[C@H]3O)c2[nH]1,100
CC(=O)OCC1=C(C(=O)O)N2C(=O)[C@@H](NC(=O)Cc3cccs3)[C@H]2SC1,37.7
COc1ccc(C(=O)n2nc(-c3ccccc3)nc2N)cc1OC,26.3

# Block 4 — effect on: enzyme activity; action: inhibitor; tested at: 20 µM
# Target: Replicase polyprotein 1ab, polymerase (rep, Severe acute respiratory syndrome coronavirus 2, UniProt P0DTD1)
SMILES,inhibition
Nc1ccn([C@H]2CO[C@@H](CO)S2)c(=O)n1,-0.76%
Cc1cccc(/C=C/c2ccccc2)n1,-3.91%
CC1(C)O[C@@H]2C[C@H]3[C@@H]4CCC5=CC(=O)CC[C@]5(C)[C@@]4(F)[C@@H](O)C[C@]3(C)[C@]2(C(=O)CCl)O1,-0.49%
Cc1c[nH]c2ncnc(N3CCC(CN)(C(=O)Nc4cccc(OC(=O)N(C)C)c4)CC3)c12,-4.84%
COc1cc(Oc2ccnc3cc(OC)c(OC)cc23)ccc1NC(=O)NC(C)c1nccs1 (stereo not drawn),5.15%
O=C(O)C(=O)c1cn(Cc2ccccc2)c2ccc(-c3ccc(OC(F)(F)F)cc3)cc12,-4.22%
CNC(=O)[C@@H](c1ccccc1)N1CCc2cc(OC)c(OC)cc2[C@@H]1CCc1ccc(C(F)(F)F)cc1,-1.39%
COc1cc2c(cc1-c1c(C)noc1C)ncc1[nH]c(=O)n([C@H](C)c3ccccn3)c12,-1.61%
COCCCOc1cc(C[C@@H](C[C@H](N)[C@@H](O)C[C@H](C(=O)NCC(C)(C)C(N)=O)C(C)C)C(C)C)ccc1OC,-5.55%
CN1CC[C@H](c2c(O)cc(O)c3c(=O)cc(-c4ccccc4Cl)oc23)[C@H](O)C1,0.38%
O=C1NCN(c2ccccc2)C12CCN(CC1COc3ccccc3O1)CC2 (stereo not drawn),14.2%
OC1(c2ccc(Cl)cc2)c2ccccc2C2=NCCN21 (stereo not drawn),-0.81%
O=C(O[C@H]1C[C@H]2CC[C@@H](C1)[N+]21CCCC1)C(O)(c1ccccc1)c1ccccc1,1.95%
O=C(/C=C/N1C[C@H]2C[C@@H]1CN2c1ccccn1)c1ccccc1O,0.75%
CC1=NC[C@H](O)[C@@H](C(=O)O)N1,0.74%
Cc1cc(C)c(Nc2ccnc(Nc3ccc(C#N)cc3)n2)c(C)c1,-6.92%
CCCC(CCC)C(=O)O[C@H]1C[C@H]2CC[C@@H](C1)[N+]2(C)C,-4.09%
Nc1nc(NC2CC2)c2ncn([C@H]3C=C[C@@H](CO)C3)c2n1,26.4%
CN(C)/N=N/c1[nH]cnc1C(N)=O,-0.35%
CCCCCCCCCCC[C@@H](C[C@@H]1OC(=O)[C@H]1CCCCCC)OC(=O)[C@H](CC(C)C)NC=O,10.3%
N#Cc1ncccn1,1.04%
CC[C@@H](Cc1c(I)cc(I)c(N)c1I)C(=O)O,4.63%
OC(CN1CCNCC1)Cn1c2ccc(Br)cc2c2cc(Br)ccc21 (stereo not drawn),17.5%
CN1CCN(c2ccc(/C=C(\C#N)c3ccccc3Br)cc2)CC1,-0.56%
O=C(CCc1ccc(O)cc1)c1c(O)cc(O)cc1O,4.23%

# Block 5 — cell line: HEK-293T; effect on: pseudovirus infection; technique: FDA-approved drug library screen; organism: VSV pseudotyped with SARS-CoV-2 spike; tested at: 10 µM; time: 16 h; relative to: vehicle-treated
Compound,GFP-positive cells [%]
N[C@@H](Cc1cc(I)c(Oc2ccc(O)c(I)c2)c(I)c1)C(=O)O,110
NC(=O)c1cccnc1,69.6
CCCCC(CC)COC(=O)C(C#N)=C(c1ccccc1)c1ccccc1 (stereo not drawn),28.7
CCCCOc1ccc(C(=O)CCN2CCCCC2)cc1,74.4

# Block 6 — technique: RNA Bind-n-Seq; molecule type: RNA; matrix: in vitro; tested at: 1 µM; notes: whole 134-nt RNA, ends assumed; added: 150 mM KCl; relative to: input library; direction: higher = stronger binding
# Target: Ras GTPase-activating protein-binding protein 1, C-terminal RGG region (G3BP1, Homo sapiens, UniProt Q13283)
# Sequence of UniProt Q13283 (whole entry, looked up): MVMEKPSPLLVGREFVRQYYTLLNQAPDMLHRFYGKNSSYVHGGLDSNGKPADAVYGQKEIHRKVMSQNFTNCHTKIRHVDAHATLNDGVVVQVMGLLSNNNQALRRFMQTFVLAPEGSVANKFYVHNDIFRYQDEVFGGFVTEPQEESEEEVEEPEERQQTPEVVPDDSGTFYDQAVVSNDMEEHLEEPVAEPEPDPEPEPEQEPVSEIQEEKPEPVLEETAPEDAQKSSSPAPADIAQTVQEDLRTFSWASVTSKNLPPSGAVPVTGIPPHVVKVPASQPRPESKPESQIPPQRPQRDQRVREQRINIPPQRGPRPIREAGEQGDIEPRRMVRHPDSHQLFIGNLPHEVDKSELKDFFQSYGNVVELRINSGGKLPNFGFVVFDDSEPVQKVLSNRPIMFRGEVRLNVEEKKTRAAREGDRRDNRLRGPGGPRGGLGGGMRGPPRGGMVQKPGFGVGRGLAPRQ
Strand,log2 enrichment
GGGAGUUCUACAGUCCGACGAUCUCAGAAGGUCUUUUAAGUCUGACCACCCAGCUUGUCAAGGAAAAACUCUCCACCUGUGAAGCAGAGGACAUCGCCACCUAUGAGCAGAAUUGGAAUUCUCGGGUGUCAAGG,0.358
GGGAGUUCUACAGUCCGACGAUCAGUCCUGUGCUACACAUCGUAUGUACCGAAUCGGGAGGGAAAAAAAGGGAAAAAGGGAAAGUAUUAUGUUACGCCGUUCGGAUCUGCACUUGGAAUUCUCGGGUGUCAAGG,0.00591
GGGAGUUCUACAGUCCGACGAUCUAACUUUAGAGGAGGAUCUGAUGGUUAUGGCAGUGGACGUGGAUUUGGGGAUGGCUAUAAUGGGUAUGGAGGAGGACCUGGAGGUGGCAAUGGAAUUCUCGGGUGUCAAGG,-1.08
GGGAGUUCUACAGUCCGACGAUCAGUCCUGUGCUACACAUCGUAUGUACCGAAUCGGUUUUUGGUUUUUGGAAAAAAAGGAAAGUAUUAUGUUACGCCGUUCGGAUCUGCACUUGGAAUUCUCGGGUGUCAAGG,-2
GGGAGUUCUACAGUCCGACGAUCAAGUCCUGUGCUACACAUCGUAUGUACCGAAUCGGAAAAAGGAAAGGUUUUUUUGGAAAGUAUUAUGUUACGCCGUUCGGAUCUGCACUUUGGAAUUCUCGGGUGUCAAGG,-2.46
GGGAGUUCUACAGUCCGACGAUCCAAGUCCUGUGCUACACAUCGUAUGUACCGAAUCGGGUUUUUGGGUUUGGGUGGGAAAGUAUUAUGUUACGCCGUUCGGAUCUGCACUUCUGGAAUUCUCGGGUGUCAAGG,1.51
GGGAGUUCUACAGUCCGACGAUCGCAGGAAGUAAAAAUAAAUGGAAAUGCUUCGGAUAGUGGCAGGGGUGGGGGUUGCUAAGGAAAGGGUGGGAUGGGAGUGGGUAAAGAGUUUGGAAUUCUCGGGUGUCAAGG,1.32
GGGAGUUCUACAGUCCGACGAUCUGGGAGGUGGAUUUUGUUUAUUUUUUUAGCUCAUUUCCAGGGGUUGGAAUUUUUUUUUAAUAUGUGUCAUGAAUAAAGUUGUUUUUGAAAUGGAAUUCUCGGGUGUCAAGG,2.44

# For quick reference, copied from above (block 2):
Strand,fluorescence intensity [a.u.]
GAATCCGGCCATAGTAACACCACGCAAGGTAACTAGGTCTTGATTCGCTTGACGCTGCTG,522
TGTACGAAGCTATAATGCGTGCTTATAGTAGTTAGGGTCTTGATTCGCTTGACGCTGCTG,538
CTAAAGAAGCCGCATCACCTTAAACACTAACCATTCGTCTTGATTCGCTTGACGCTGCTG,515
CTATGAACAGAAACAAATCACATGTTTCCTTGGTTCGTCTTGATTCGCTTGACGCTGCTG,3150
CTAAAAAAAAAGATCATCATGATTACGTAGAAATTCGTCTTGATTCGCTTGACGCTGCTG,509
TGTACGAAGCTATATCACGGAGATATAGTAGTTAGGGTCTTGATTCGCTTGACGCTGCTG,522
GAACTAAAGAAAAGTGAGGTCACCTACCATCAATAGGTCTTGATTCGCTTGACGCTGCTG,536
CTATGACTGGACGGTGATGCAGTAGCTGTTAACTTCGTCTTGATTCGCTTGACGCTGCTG,492
